Measurements pooled from the literature.
Parts stem from different laboratories: compare values within a part only. Substitutions count along the parent as printed.

Sample 1
Target: CCNE2, cyclin fold, Cln2 fusion (human)
Technique: yeast growth competition, sequencing
Matrix: yeast
Notes: strong parent motif
Reference: not given
Direction: higher = stronger binding
Starting sequence: INSM1 docking peptide (human); PKAIRKLHFEDEV; partner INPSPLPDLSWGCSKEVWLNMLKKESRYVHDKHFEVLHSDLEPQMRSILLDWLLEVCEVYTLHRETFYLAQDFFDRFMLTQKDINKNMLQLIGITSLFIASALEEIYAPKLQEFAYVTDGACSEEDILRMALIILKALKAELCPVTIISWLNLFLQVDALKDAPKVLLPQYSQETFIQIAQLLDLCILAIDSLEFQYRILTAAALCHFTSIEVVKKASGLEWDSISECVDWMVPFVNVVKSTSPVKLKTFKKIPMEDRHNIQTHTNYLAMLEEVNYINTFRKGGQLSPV
| Substitution | normalised enrichment score |
| --- | --- |
| PKAIHKLHFEDEV [R5H] | 0.0935 |
| PKAIRKQHFEDEV [L7Q] | 0.151 |
| PKAIKKLHFEDEV [R5K] | 0.16 |
| PKAIRKLHFEDPV [E12P] | 1.91 |
| PKAIRKLIFEDEV [H8I] | 2.33 |
| PKAIYKLHFEDEV [R5Y] | 0.0184 |
| PKAIRYLHFEDEV [K6Y] | 0.683 |
| PKAHRKLHFEDEV [I4H] | 0.446 |
| PKAIRKLHFKDEV [E10K] | 0.795 |
| PKAIRKLHFEDCV [E12C] | 2.59 |
| PKAIRKIHFEDEV [L7I] | 0.618 |
| PKAIGKLHFEDEV [R5G] | -0.15 |
| PQAIRKLHFEDEV [K2Q] | 1.29 |
| PKAIRKSHFEDEV [L7S] | 0.214 |
| PKAIRKLHFTDEV [E10T] | 1.36 |
| PKAIRKFHFEDEV [L7F] | -0.323 |

Sample 2
Target: Sal-like protein 4, full length isoform A (SALL4, Homo sapiens, UniProt Q9UJQ4, residues 1-1053)
Sequence of UniProt Q9UJQ4 (whole entry, looked up): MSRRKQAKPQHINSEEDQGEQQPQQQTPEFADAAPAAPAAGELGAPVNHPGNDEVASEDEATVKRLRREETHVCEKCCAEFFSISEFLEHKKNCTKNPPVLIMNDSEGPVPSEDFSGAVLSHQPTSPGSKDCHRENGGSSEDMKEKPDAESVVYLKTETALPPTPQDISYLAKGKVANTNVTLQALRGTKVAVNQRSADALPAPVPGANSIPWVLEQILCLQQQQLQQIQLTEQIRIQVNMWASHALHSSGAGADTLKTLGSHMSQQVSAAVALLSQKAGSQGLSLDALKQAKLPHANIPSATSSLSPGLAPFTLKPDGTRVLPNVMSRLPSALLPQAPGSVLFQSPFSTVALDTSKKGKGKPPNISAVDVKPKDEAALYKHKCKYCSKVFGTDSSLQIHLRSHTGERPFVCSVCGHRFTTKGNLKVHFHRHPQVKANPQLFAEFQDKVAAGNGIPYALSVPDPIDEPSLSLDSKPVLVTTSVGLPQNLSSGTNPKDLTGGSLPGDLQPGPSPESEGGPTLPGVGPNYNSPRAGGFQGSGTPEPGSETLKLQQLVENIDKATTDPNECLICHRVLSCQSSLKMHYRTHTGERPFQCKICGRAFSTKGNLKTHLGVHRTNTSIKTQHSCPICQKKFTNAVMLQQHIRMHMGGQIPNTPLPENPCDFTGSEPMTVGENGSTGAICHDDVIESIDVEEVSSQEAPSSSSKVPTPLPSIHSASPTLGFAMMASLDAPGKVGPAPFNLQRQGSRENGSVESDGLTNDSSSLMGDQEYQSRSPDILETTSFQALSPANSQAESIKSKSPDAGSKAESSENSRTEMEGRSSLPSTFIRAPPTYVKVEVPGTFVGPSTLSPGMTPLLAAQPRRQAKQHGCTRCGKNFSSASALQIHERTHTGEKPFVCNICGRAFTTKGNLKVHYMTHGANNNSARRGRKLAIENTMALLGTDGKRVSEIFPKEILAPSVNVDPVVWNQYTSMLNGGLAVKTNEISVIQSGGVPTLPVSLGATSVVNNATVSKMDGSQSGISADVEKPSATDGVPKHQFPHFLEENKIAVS
Technique: universal PBM
Form: double-stranded DNA, one strand shown
Matrix: in vitro
Tested at: 600 nM
Notes: 8-mer, flanks averaged, mean of replicates
Direction: higher = stronger binding
| Sequence | E-score |
| --- | --- |
| CCGAGAGA | -0.0953 |
| GGATGAAC | -0.0415 |
| AGACACTG | -0.135 |
| ACATCGGA | -0.00862 |
| ATACACCG | -0.0497 |
| CGATCCCG | -0.301 |
| AGCTCGAG | -0.24 |
| CCCTGTAG | -0.113 |
| CAACGAAG | -0.0269 |
| ATGTGACC | 0.0405 |
| AACCACAA | 0.121 |
| CAGGCTAA | -0.182 |
| CGCAAGGC | -0.215 |
| GATTGGTA | 0.106 |
| CGTCATAC | 0.159 |
| AGTTGCTA | 0.151 |

Sample 3
Target: ABI1, truncated, D143A, DHFR fusion (Arabidopsis thaliana)
Technique: DHFR PCA, deep sequencing
Matrix: yeast
Notes: methotrexate growth selection, single substitutions
Together with: (+)-ABA 0.032 µM
Reference: wild-type fitted maximum
Direction: higher = stronger binding
Starting sequence: PYL1, truncated, DHFR fusion (Arabidopsis thaliana); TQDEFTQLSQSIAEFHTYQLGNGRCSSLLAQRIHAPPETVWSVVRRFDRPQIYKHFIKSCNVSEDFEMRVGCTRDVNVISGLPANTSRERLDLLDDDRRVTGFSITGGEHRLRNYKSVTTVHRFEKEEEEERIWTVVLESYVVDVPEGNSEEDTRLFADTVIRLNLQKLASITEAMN
| Substitution | relative binding score [%] |
| --- | --- |
| I79M | 5.96 |
| E4D | 19.2 |
| P50D | -1.12 |
| L112C | -0.508 |
| V100G | -0.996 |
| R24E | 5.06 |
| F5G | -1.04 |
| D92E | 0.467 |
| V62T | 4.65 |
| H55T | 12.1 |
| F15C | -3.9 |
| R90I | -2.39 |
| H110V | 15.9 |
| E125H | 46 |
| Q10K | 40 |
| G23T | 0.94 |
| R132I | 22.9 |
| A170P | -2.16 |
| F5A | 10.4 |

Sample 4
Target: Hepatocyte nuclear factor 3-alpha (Foxa1, Mus musculus, UniProt P35582, residues 1-468, full length assumed)
Sequence of UniProt P35582 (whole entry, looked up): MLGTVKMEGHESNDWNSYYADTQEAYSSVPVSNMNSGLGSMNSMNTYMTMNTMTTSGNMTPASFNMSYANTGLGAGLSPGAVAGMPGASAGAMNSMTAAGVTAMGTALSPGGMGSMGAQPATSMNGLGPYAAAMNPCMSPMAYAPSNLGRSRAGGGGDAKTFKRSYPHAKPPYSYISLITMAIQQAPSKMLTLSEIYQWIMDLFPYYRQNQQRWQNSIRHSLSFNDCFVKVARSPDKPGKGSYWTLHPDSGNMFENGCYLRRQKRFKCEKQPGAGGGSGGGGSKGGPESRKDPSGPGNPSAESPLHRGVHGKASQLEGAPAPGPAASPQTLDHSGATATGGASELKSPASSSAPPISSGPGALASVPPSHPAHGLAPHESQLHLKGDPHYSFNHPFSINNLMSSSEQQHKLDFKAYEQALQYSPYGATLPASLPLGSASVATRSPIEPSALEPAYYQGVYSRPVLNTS
Technique: EMSA with sequencing
Form: double-stranded DNA, one strand shown
Matrix: in vitro
Tested at: 10 and 20 nM
Notes: whole designed probe, mean of two concentrations, ends assumed
Reference: negative control set to 0
Direction: higher = stronger binding
Shared flanks, not repeated: GTGAGCGGTGCCCATTGATGGGGAAC … TTTCACTGGGATCGTGGGGAC
| Sequence | normalised bound fraction |
| --- | --- |
| ACTTCCACAAGGGAAGATAATGATAAAACATTAATAAAAATATCTATGAAGATGAGGACACAATAGAAAGCACAAGTTACATTGGGAAAAAGAGTCAACAGATACAACAAGATAATTCACATCCCAATAATTAAGGGTAATAAAGCAATATGAAAGAGGTAAGTATGCTTAAAATGTTTATTGACCAAAAGAA | 0.232 ratio |
| CCTGGCTGTGTGCTAATGGACAGGAGAAGAACTTGGATTTTGATAGCTTCTATATTACTTATAATTGTGTACAAATATTTACATTTATTGCCCTTGTTTACTTTTATGTTTATGAGCTTACTTGTTCAATGTCCCTCAACTGAAAGTGCATCTCAAAATGAGATTTATGAATTTGTACATTTGAGTTCTGTGT | 0.494 ratio |
| TGGTAGAATGTGAAACTTTTAATACAGCCACTTGAATTGTCTACATATTCTTTTTAAGGGATATGAACCTTAGTTACACATTTTTTCTTCTGTATGTTTACATAGACTCCATCAGAAAGGTTTCAGCCAAGTAGCCTCTTTCCAGCTTCCAATGCCACATATTTGCAGAATGAAGAAAACTCAACTGGAGAAG | 0.403 ratio |
| AGGACTAGAGATGGAAAAGTGGAGACCTCGGGAGAGAAAAGTAAAAATAGGTGAGAATGTTCCATCTGAATCCCTGATGGGGACTGTGGGGCTTGTTTACTTAAGGTTCTCCTTTGGGGAGGGCAGACAAGAACCAGTCCCAGCTGGGACTCTGGTGCAGAGGGATGGAAGGTGATCGTTTTGTGTGAGTCTC | 0.467 ratio |
| GCTATGTTGCCCAGGCTGGTCTTGAACTCCTGGCCTCAGGCTGTCCTCCTGCTTTGGCCTCTCAAAGTGCTGTGATTACAGGCATGAGCCACTGTAAACACAGTATTTAAATAAGCAATCCTCACACTGGGAGGGAGTGAAGGATGCCCCTCTTTGCCCTGGAAGGTACATCAGAAAAAGCCTACCAGTGGGC | 0.188 ratio |
| ATTGTACCTAGCTTCAATACAGTTATCTAAACCAGGAAAATGGTTTTCTGACTGTATTAGTCGCCTAGGGCTGCTTTAATAGGTCTTGCAAAAGTACTCTTATACTTGTCTTATGACTCAGCAATTCCACCGTTAGTATTTACCCCAAAATGATAAGCAATTCTGCAAATATGCTTCAGTTTACATATTTAGA | 0.123 ratio |
| TTGGCTTAGTTAAGCCAGGAGCTCCTAAAGTTAATGAAATGTGCCTAATTAAATGGTGGCAGTTGGACTTTGATATTTTGGTTGATGAATTATTTGTTTACTTTGATTTGCTATGGTTCACATAATTTCAAAGGTAGCATCGTGTCTGTCATGGAAAATTTCTAAAGAAGGATTTGCCAATAGAATTACAAAT | 0.468 ratio |

Sample 5
Target: CDC34 UBC core domain (UniProt P49427)
Technique: yeast two-hybrid
Matrix: yeast
Notes: mostly zero background
Reference: not given
Direction: higher = stronger interaction
B1: UHRF2 RING domain (UniProt Q96PU4); chain CGGDPEKKCHSCSCRVCGGKHEPNMQLLCDECNVAYHIYCLNPPLDKVPEEEYWYCPSCKTDSSEVVKAGER
B2: ARK2C RING domain (UniProt Q6ZSG1); chain EGEESDTDEKCTICLSMLEDGEDVRRLPCMHLFHQLCVDQWLAMSKKCPICRVDIETQLGAD
B3: TRIM8 RING domain (UniProt Q9BZR9); chain WKNCFEEELICPICLHVFVEPVQLPCKHNFCRGCIGEAWAKDSGLVRCPECNQAYNQKPGLE
B4: TRIM63 RING domain (UniProt Q969Q1); chain PMENLEKQLICPICLEMFTKPVVILPCQHNLCRKCANDIFQAANPYWTSRGSSVSMSGGRFRCPTCRHEVIMDRHGV
Target sequence (chain): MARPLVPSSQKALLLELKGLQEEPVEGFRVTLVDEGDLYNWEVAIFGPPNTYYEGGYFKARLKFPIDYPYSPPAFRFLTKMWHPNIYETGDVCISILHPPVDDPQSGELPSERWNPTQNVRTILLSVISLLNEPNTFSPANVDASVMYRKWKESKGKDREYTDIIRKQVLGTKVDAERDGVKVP
| Sequence | lacZ reporter activity |
| --- | --- |
| B1 (UHRF2 RING domain) | 0 |
| B2 (ARK2C RING domain) | 0 |
| DAIPSLSECQCGICMEILVEPVTLPCNHTLCKPCFQSTVEKASLCCPFCRRRVSSWTRYH (RNF168 RING domain (UniProt Q8IYW5)) | 0 |
| B3 (TRIM8 RING domain) | 0 |
| B4 (TRIM63 RING domain) | 0 |
| QLRRLQEERTCKVCMDKEVSVVFIPCGHLVVCQECAPSLRKCPICRGIIKGTVRTF (BIRC2 RING domain (UniProt Q13490)) | 0 |
| FASPPDSNFVCSVCHGVLKRPARLPCSHIFCKKCILRWLARQKTCPCCRKEVKRKKVVH (RNF151 RING domain (UniProt Q2KHN1)) | 0 |

Sample 6
Target: RNA binding protein fox-1 homolog 2, RRM domain, GST-SBP tag (RBFOX2, Homo sapiens, UniProt O43251-10, residues 100-194)
Technique: RNA Bind-n-Seq
Form: RNA
Matrix: in vitro
Tested at: 365 nM
Notes: natural RNA segment, single round, ends assumed
Reference: no-protein control
Direction: higher = stronger binding
Shared flanks, not repeated: GGGAGUUCUACAGUCCGACGAUC … UGGAAUUCUCGGGUGCCAA
Residues (chain): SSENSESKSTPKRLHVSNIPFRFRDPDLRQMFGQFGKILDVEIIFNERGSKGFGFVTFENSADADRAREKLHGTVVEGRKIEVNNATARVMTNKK
| Sequence | RBNS enrichment (R) |
| --- | --- |
| AUAAAGAUCCCCUACAGCAUUUCUUUAUUAGUUUCAUCAGAUUUGUUCUAUGCAUUAUUCUUCAAGAGAAAUUAGUUUUCAAAAUGCCCACCAAAAUACCUAGUAAUUAA | 0.772 |
| GAGGGGUUAAUGUGAGGCCUUUUUGAAAAAUGAAUAUUUUGAUAAAAAGAAUUCUUGUUUUAGCACAGUUGAUGCACAUAAGUGAUUCUCAUAUUUGUUGUAUAAACUGG | 0.493 |
| GGAAGAUGUGGAAAAGAACCGCAAGGUGGUGGCAGAGAACCUGGAGAAGGUCCAGGCUGAGGCGGAGAGAUUGGACCAGGAGGAAGCUCAGUGGGUACCAGCGGGAGUAU | 0.843 |
| AACAAUAAAGUUGGCUAGACCUUGUUUGGGGAAUUUUACAAAUUUUAUAAACUAUCUGUAGCAAUUAGGGUUUUUAUUUUACAUUAAAAAUGUAAACUGCUCCCCCUCUC | 0.345 |
| UGUCAUGCUGGGCCCUUCAUUUGAUCUGGGACAUAGCAUCACAGCAGUCAGGGCACCUGGAUUGUUCUGUUAUCGAUAUUGUUUCUUGUAGCGGCCUGUUGUGCAUGCCA | 7.99 |
| UAAUAAUGAUGUGAAACAUAAAGAUUUAAUAAUUACUGUCCAACACAGUGGAGCAGCUUGUCCACAAAUAUAGUAAUUACUAUUUAUUGCUCUAAGGAAGAUUAAAAAAA | 0.743 |
| CCUUGCUUUGGAGACUUUAAGACAUUUCCUAAAGCACAAAUAAAAGCCUCGUAUUUCCCCAUUGAGAGUUUUGUUCCAAGGAAUAUGAAGUGAGACAUAUGGGUGAGUCA | 0.539 |
| CCAUCUUUAGUUAAUGGAAUUUUAAUUUAAAUGAAGCUUUGCUAAUUUUAAGUGGUAAGCAUUUUGCAUUAAAAUAUUCCUAUAAUAUUUUGUCGCUGUUCUUUGUCCUU | 0.457 |
| CCGGAAGCUCCCGCGUGCAUCCCGGGAUGACCAGACUCCCGGACUCCUCAGGCAGUGCCCUUCCUCCCCACUCUUCCUCCCCACAGACAGGCCUCUGCUCCUGCGCCUGC | 0.819 |
| CUUGAAAGUUUUCAGAACCUCUUCCCCAGAAAGGAGACUAGAUUGCCUUUGUUUUGAUGUUUGUGGCCUCAGAAUUGAUCAUUUUCCCCCCACUCUCCCCACACUAACCU | 0.552 |
| AGCAGAAUUGUCUGGAAAGACUGAAGGACAGAGAGGGAGGUGUACAGUUCUCUCUGGAGGCUUUGUGGGAUUGGGAGAGCUGCUACAGAGGAGUACCAUGAAAGCACUGA | 1.69 |
| CCCCUCUCACAAACCAUAUAAACACAGGGAGGGGCUUUCUCACCACUUCUGAGGAGACUGUACAGCCCGUUUUGUGCCUGUGUGUGUGUUCAUGGCCUGUAAGUGUACCC | 0.545 |

Repeated from above (sample 2):
| Sequence | E-score |
| --- | --- |
| AGCTCGAG | -0.24 |
| CCCTGTAG | -0.113 |
| CAACGAAG | -0.0269 |
| ATGTGACC | 0.0405 |
| AACCACAA | 0.121 |
